{"data": "Measurements collected from several papers", "organism": "HIV-1", "note": "Each line is one published result; not all experiments were run side by side. ± gives the spread as reported."}
{"SMILES": "Cl.Cl.Cl.Cl.Cl.Cl.Cl.Cl.Cl.Cl.Cl.Cl.NC[C@@H]1O[C@H](O[C@H]2[C@@H](O)[C@H](O[C@@H]3[C@@H](O)[C@H](N)C[C@H](N)[C@H]3O[C@H]3O[C@H](CN)[C@@H](O)[C@H](O)[C@H]3N)O[C@@H]2Cn2cc(CCCCCCc3cn(C[C@H]4O[C@@H](O[C@@H]5[C@@H](O)[C@H](N)C[C@H](N)[C@H]5O[C@H]5O[C@H](CN)[C@@H](O)[C@H](O)[C@H]5N)[C@H](O)[C@@H]4O[C@H]4O[C@@H](CN)[C@@H](O)[C@H](O)[C@H]4N)nn3)nn2)[C@H](N)[C@@H](O)[C@@H]1O", "test": "HIV cytopathic effect, neutral red", "system": "MT-2", "endpoint": "maximum protection", "result": "33%"}
{"SMILES": "CC(=O)N[C@@H](CS)C(=O)N[C@@H](CO)C(=O)N[C@@H](CO)C(=O)N[C@@H](Cc1c[nH]c2ccccc12)C(=O)N[C@@H](Cc1ccccc1)C(=O)N1CCC[C@H]1C(=O)N[C@@H](Cc1ccccc1)C(=O)N[C@@H](CO)C(=O)N[C@@H](CCC(N)=O)C(=O)N[C@@H](Cc1ccc(O)cc1)C(=O)N[C@@H](CCC(N)=O)C(=O)N[C@@H](Cc1c[nH]c2ccccc12)C(=O)N[C@@H](Cc1c[nH]c2ccccc12)C(=O)N[C@@H](CCCCN)C(N)=O", "system": "YU2 pseudovirus (R5)", "setting": "concentration not given", "endpoint": "neutralisation activity", "result": "active"}
{"SMILES": "Cc1cccc(-c2cc(C#N)cc(Oc3c(C(F)(F)F)ccn(Cc4n[nH]c(=O)n4C)c3=O)c2)c1", "system": "MT4, wild type", "scale": "baseline: CC50 over EC50", "endpoint": "selectivity index", "result": 2020}
{"SMILES": "O=C1c2c(ccc(O)c2O)CN1Cc1cccc(Cl)c1F", "test": "viral replication", "system": "integrase Y143R mutant, VSV-G pseudotyped", "endpoint": "EC50", "result": "600 ± 200 nM"}
{"SMILES": "N=C(N)NCCC[C@@H]1NC(=O)[C@H](Cc2ccc(O)cc2)NC(=O)[C@H](CO)N2CC[C@@H](C2=O)N2CC[C@H](NC(=O)[C@@H]3CCCN3C(=O)[C@H](Cc3ccc(O)cc3)NC1=O)C2=O", "test": "item: GagPol and Env mRNA", "system": "HeLa-CD4", "setting": "10 µM, 24 h", "endpoint": "nuclear to cytoplasmic mRNA ratio", "result": "no effect"}
{"SMILES": "Cc1nc([C@H](NC(=O)c2ccc(-c3ccc(Cl)cc3)[nH]2)[C@H]2CCCCN2)sc1CO", "test": "viral entry", "system": "TZM-bl, panel of 56 Env pseudoviruses", "setting": "up to 2 µM", "endpoint": "sensitive viruses", "result": "71%"}
{"SMILES": "O=C1c2ccc(O)c(O)c2C(=O)N1Cc1cccc(Cl)c1F", "test": "viral replication", "system": "wild type, VSV-G pseudotyped", "endpoint": "EC50", "result": "700 ± 100 nM"}
{"SMILES": "Cl.Cl.Cl.Cl.Cl.Cl.Cl.Cl.Cl.Cl.Cl.Cl.NC[C@@H]1O[C@H](O[C@H]2[C@@H](O)[C@H](O[C@@H]3[C@@H](O)[C@H](N)C[C@H](N)[C@H]3O[C@H]3O[C@H](CN)[C@@H](O)[C@H](O)[C@H]3N)O[C@@H]2Cn2cc(-c3ccc(-c4cn(C[C@H]5O[C@@H](O[C@@H]6[C@@H](O)[C@H](N)C[C@H](N)[C@H]6O[C@H]6O[C@H](CN)[C@@H](O)[C@H](O)[C@H]6N)[C@H](O)[C@@H]5O[C@H]5O[C@@H](CN)[C@@H](O)[C@H](O)[C@H]5N)nn4)cc3)nn2)[C@H](N)[C@@H](O)[C@@H]1O", "test": "HIV cytopathic effect, neutral red", "system": "MT-2", "endpoint": "maximum protection", "result": "33%"}
{"SMILES": "COc1ccc(-n2c(SCC#N)nnc2[C@H](Cc2ccccc2)NC(=O)Cc2c(C)[nH]c3ccccc23)cc1", "system": "MT-4, wild type", "scale": "baseline: CC50 over EC50", "endpoint": "selectivity index", "result": 163}
{"SMILES": "CC(=O)N[C@@H](CS)C(=O)N[C@@H](CO)C(=O)N[C@@H](CO)C(=O)N[C@@H](Cc1c[nH]c2ccccc12)C(=O)N[C@@H](Cc1ccc(O)cc1)C(=O)N1CCC[C@H]1C(=O)N[C@@H](Cc1ccccc1)C(=O)N[C@@H](CO)C(=O)N[C@@H](CCC(N)=O)C(=O)N[C@@H](Cc1ccc(O)cc1)C(=O)N[C@@H](CCC(N)=O)C(=O)N[C@@H](Cc1c[nH]c2ccccc12)C(=O)N[C@@H](Cc1c[nH]c2ccccc12)C(=O)N[C@@H](CCCCN)C(N)=O", "system": "89.6 (R5/X4)", "setting": "concentration not given", "endpoint": "neutralisation activity", "result": "inactive"}
{"SMILES": "COc1ccc2c(c1)OCCCC=CCCCCN(CC(O)C(Cc1ccccc1)NC(=O)OC1COC3OCCC13)S2(=O)=O (mixture of isomers)", "test": "viral replication", "system": "PHA-stimulated PBMC, MDR/JSL R5", "endpoint": "IC50", "result": "210 ± 32 nM"}
{"SMILES": "Cc1cn(C2CC(N(C)C)C(CO)O2)c(=O)[nH]c1=O (centres unmarked)", "test": "MTT", "system": "MT-4, ROD and IIIB", "setting": "concentration not given", "endpoint": "antiviral activity", "result": "inactive"}
{"SMILES": "CC[C@H](C)[C@H](N)C(=O)N[C@@H](CO)C(=O)N[C@@H](Cc1ccccc1)C(=O)N[C@@H]1CSCc2ccc(cc2)-c2ccc(cc2)CSC[C@@H](C(=O)N[C@@H](CCC(=O)O)C(=O)N[C@@H](CO)C(=O)NCC(=O)N[C@@H](CO)C(N)=O)NC(=O)[C@H](Cc2ccc(O)cc2)NC(=O)[C@H](Cc2ccc(O)cc2)NC(=O)[C@H](CC(=O)O)NC(=O)[C@H](CC(C)C)NC(=O)[C@H](CC(C)C)NC(=O)[C@H](CCC(=O)O)NC1=O", "test": "viral entry, single-cycle pseudovirus", "system": "Env PVO, subtype B", "endpoint": "IC50", "result": "3500 ± 100 nM"}
{"SMILES": "CC(C)N1CCn2cc(C(=O)NCc3ccc(F)cc3F)c(=O)c(O)c2C1=O", "test": "single-round infection", "setting": "integrase E138K/Q148K vector", "scale": "baseline: cpd over cabotegravir", "endpoint": "antiviral potency ratio", "result": "> 12"}
{"note": "For quick reference, copied from above:"}
{"SMILES": "O=C1c2c(ccc(O)c2O)CN1Cc1cccc(Cl)c1F", "test": "viral replication", "system": "integrase Y143R mutant, VSV-G pseudotyped", "endpoint": "EC50", "result": "600 ± 200 nM"}
